Measurements gathered from unrelated publications.
Compare with care: the assays were run in different laboratories. ± gives the spread as reported.
Aryl hydrocarbon receptor: Aryl hydrocarbon receptor (Danio rerio, UniProt Q9YGV3)
ACHE: Acetylcholinesterase (ACHE, Homo sapiens, UniProt P22303)
UniProt P22303, sequence (whole entry, looked up): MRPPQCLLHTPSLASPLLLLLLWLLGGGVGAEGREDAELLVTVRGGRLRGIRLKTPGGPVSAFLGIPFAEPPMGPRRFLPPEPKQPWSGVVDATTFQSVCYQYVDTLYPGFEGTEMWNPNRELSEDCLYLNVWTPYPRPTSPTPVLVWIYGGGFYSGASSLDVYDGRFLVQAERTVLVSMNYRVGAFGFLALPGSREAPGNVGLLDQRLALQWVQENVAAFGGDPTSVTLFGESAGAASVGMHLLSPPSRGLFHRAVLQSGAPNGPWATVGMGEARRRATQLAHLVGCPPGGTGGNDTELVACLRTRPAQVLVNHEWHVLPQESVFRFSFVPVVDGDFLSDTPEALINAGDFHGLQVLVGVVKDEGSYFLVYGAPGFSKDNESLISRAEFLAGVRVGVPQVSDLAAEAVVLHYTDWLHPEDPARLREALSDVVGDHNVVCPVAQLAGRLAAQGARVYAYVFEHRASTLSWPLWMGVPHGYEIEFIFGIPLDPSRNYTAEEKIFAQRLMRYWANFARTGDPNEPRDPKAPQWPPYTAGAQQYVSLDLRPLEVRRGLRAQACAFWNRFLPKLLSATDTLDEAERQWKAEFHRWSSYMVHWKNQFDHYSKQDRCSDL
PFF0160c E182D: Dihydroorotate dehydrogenase (quinone), mitochondrial (PFF0160c, Plasmodium falciparum, UniProt Q08210, E182D)
UniProt Q96RI1, sequence (whole entry, looked up): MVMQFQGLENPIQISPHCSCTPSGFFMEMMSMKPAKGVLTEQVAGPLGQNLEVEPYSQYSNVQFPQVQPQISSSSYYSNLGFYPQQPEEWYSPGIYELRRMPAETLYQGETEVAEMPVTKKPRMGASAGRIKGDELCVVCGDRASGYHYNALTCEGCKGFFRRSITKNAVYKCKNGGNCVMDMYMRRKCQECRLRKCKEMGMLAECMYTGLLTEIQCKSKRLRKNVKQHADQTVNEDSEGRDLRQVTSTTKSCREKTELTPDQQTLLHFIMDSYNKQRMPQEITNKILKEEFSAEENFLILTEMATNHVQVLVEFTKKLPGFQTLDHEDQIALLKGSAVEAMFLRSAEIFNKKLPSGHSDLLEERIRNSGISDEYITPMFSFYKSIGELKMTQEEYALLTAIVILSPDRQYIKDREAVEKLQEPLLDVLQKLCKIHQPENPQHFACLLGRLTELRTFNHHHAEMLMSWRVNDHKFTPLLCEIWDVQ
UniProt P49336, sequence (whole entry, looked up): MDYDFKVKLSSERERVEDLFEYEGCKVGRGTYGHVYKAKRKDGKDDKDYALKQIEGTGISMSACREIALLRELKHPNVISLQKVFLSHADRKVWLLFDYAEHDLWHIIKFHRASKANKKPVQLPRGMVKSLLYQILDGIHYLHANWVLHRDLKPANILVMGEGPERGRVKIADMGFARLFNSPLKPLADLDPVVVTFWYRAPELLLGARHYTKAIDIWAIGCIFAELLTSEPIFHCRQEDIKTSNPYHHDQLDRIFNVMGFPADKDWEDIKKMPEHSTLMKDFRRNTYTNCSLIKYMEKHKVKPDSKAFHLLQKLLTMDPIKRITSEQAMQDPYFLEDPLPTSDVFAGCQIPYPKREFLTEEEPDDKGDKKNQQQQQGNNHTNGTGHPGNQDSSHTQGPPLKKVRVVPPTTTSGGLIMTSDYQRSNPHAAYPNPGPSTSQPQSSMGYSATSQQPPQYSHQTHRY
UniProt Q9GZZ6, sequence (whole entry, looked up): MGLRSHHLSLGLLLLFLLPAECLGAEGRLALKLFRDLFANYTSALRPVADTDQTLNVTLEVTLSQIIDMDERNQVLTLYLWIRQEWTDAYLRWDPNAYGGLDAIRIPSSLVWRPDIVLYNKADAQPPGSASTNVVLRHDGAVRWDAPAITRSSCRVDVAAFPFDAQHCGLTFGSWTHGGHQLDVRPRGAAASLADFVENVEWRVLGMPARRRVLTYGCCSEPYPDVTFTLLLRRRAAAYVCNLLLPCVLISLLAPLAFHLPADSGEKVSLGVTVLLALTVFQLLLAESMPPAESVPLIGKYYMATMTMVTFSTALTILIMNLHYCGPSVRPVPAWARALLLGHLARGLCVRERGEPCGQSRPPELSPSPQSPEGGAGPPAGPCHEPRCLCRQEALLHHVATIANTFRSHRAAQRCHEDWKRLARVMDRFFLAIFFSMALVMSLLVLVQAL
UniProt Q15760, sequence (whole entry, looked up): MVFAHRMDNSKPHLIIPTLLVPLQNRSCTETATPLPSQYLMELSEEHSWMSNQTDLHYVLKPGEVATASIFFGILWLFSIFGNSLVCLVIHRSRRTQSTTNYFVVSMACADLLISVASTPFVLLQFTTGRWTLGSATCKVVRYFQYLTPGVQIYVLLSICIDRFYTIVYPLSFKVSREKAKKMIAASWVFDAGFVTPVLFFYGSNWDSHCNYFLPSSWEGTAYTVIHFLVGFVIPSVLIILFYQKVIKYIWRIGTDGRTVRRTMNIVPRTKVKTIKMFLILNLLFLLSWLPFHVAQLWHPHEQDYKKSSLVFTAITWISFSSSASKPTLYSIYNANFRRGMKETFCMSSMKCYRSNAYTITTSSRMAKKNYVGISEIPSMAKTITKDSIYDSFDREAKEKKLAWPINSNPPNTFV
UniProt P36896, sequence (whole entry, looked up): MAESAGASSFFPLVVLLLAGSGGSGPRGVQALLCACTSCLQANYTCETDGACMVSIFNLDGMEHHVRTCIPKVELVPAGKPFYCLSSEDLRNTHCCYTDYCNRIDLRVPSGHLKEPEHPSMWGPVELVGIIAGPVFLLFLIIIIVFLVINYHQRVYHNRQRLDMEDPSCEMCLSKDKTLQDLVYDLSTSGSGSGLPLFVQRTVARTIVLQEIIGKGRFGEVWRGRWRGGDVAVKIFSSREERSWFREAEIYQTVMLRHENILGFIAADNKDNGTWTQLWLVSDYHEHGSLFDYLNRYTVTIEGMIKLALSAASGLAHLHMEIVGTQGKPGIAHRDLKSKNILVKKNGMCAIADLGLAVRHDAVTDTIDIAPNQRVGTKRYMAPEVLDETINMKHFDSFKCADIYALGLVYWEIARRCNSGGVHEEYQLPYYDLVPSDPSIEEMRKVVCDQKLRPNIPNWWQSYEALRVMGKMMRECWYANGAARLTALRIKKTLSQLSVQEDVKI
UniProt P15735, sequence (whole entry, looked up): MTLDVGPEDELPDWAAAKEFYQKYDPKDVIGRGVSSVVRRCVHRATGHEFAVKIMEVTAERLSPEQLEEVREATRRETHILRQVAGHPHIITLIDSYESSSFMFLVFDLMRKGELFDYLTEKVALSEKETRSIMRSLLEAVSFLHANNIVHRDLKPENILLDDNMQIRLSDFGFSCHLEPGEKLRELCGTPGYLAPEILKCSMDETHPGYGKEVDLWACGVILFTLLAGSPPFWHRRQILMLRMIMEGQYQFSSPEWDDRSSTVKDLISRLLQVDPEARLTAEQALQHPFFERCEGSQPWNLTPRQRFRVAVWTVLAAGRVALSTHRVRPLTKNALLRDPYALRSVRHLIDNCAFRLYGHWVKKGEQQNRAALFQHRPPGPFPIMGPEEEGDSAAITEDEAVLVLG
UniProt P35869, sequence (whole entry, looked up): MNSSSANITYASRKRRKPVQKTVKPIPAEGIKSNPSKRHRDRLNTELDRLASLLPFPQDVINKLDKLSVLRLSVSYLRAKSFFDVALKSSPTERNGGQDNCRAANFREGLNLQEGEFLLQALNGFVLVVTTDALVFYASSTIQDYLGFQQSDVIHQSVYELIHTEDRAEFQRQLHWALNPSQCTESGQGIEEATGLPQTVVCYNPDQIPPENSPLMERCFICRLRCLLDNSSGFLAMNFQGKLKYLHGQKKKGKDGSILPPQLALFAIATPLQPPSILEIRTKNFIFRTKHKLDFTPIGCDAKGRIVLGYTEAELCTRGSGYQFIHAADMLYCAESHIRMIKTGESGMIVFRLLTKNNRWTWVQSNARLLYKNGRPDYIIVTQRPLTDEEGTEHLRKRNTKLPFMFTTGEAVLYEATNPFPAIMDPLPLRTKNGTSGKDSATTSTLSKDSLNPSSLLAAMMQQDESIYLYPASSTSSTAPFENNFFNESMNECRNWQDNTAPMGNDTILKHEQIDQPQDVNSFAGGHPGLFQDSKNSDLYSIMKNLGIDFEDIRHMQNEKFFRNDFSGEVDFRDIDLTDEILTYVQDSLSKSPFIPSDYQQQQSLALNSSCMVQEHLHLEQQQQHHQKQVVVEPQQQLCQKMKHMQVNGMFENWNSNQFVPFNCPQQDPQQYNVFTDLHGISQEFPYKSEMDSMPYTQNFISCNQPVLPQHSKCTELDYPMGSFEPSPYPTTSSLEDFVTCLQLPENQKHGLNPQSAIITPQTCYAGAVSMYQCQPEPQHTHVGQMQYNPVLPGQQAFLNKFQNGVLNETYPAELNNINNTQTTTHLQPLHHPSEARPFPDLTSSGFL
UniProt P57058, sequence (whole entry, looked up): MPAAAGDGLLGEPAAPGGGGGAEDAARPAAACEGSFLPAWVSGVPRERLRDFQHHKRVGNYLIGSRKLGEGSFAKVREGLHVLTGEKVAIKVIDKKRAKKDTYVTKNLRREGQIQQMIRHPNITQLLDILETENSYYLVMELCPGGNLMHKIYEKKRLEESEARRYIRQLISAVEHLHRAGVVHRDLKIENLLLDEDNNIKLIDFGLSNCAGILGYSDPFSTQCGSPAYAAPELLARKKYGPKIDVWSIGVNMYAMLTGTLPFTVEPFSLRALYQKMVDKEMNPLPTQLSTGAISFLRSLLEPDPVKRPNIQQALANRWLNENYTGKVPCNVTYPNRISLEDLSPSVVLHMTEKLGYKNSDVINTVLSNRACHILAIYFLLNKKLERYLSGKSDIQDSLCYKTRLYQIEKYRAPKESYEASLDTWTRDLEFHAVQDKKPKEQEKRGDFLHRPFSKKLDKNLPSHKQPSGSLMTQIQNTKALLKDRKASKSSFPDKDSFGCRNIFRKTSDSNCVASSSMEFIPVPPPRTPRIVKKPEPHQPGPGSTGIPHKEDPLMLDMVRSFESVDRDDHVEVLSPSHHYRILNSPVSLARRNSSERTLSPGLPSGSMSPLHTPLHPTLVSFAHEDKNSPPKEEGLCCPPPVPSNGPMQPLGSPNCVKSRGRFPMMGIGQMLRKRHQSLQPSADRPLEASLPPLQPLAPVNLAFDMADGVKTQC

`CC[C@H](C)[C@H](NC(=O)CNC(=O)[C@@H](N)CCCCN)C(=O)N[C@@H](CC(C)C)C(=O)N[C@@H](CCCCN)C(=O)N[C@@H](CCCNC(=N)N)C(=O)N[C@@H](CCC(=O)O)C(=O)N[C@@H](CCCCN)C(=O)N[C@@H](CCCNC(=N)N)C(=O)N[C@@H](CC(C)C)C(=O)N[C@@H](CCCNC(=N)N)C(=O)N[C@@H](CCCNC(=N)N)C(=O)N[C@@H](CCCCN)C(=O)N[C@@H](CC(N)=O)C(=O)N[C@H](C(=O)N[C@@H](Cc1c[nH]cn1)C(=O)N[C@@H](Cc1c[nH]c2ccccc12)C(=O)N1CCC[C@H]1C(=O)N[C@@H](CCC(=O)O)C(=O)N[C@@H](CCC(=O)O)C(=O)NCC(=O)N[C@@H](CCCCN)C(=O)N[C@@H](CC(C)C)C(=O)N[C@@H](CCCNC(=N)N)C(=O)N[C@@H](CCC(=O)O)C(=O)N[C@@H](Cc1ccccc1)C(=O)N[C@@H](Cc1ccccc1)C(=O)N[C@@H](Cc1ccccc1)C(=O)N[C@@H](Cc1ccccc1)C(=O)N[C@@H](CCC(=O)O)C(=O)N[C@@H](CC(C)C)C(=O)N[C@@H](CC(=O)O)C(=O)N[C@@H](CCC(=O)O)C(=O)N[C@@H](C)C(=O)N[C@@H](CCC(=O)O)C(=O)N[C@@H](CCCNC(=N)N)C(=O)N[C@H](C(=O)N[C@@H](CC(N)=O)C(=O)N[C@H](C(=O)O)C(C)C)C(C)C)C(C)C`: “log2 fold change” -7.26 (protein phosphatase 1 complexes; bead binding, competitive inhibitor, inhibitor bead pulldown LC-MS/MS, refers to: URI1; HeLa and HEK293T cells, cell lysate; concentration not given; baseline: compound over control).
With `[2H]c1c([2H])c([C@]2([2H])CCCN2C(=O)C(C)(C)Oc2ccc3cn[nH]c3c2)c([2H])c([2H])c1C([2H])([2H])[2H]` the remaining binding was 81% (ACVR1B (Homo sapiens, UniProt P36896); KINOMEscan; 1 µM; baseline: DMSO control).
For `Nc1ncc(-c2nc(N3CCOCC3)nc(N3CCOCC3)n2)c(C(F)F)n1`, the remaining binding was 78% (HUNK (Homo sapiens, UniProt P57058); KINOMEscan; 10 µM).
`COc1cc(Nc2ncc(F)c(Nc3ccc4c(n3)NC(=O)C(C)(C)O4)n2)cc(OC)c1OC` has an inhibition of 0% (CDK8 (Homo sapiens, UniProt P49336); KINOMEscan; 10 µM).
`CC[C@@H](C)[C@@H](NC(=O)[C@@H](Cc1ccc(O)cc1)NC(=O)[C@H]1CCCN1C(=O)[C@@H](CCCNC(=N)N)NC(=O)[C@H](N)Cc1c[nH]cn1)C(=O)N[C@H](C)C(=O)N[C@H](Cc1c[nH]cn1)C(=O)N[C@H](CCCNC(=N)N)C(=O)N[C@H](CCCCNC(=O)c1cccc(S(=O)(=O)F)c1)C(=O)N[C@H](Cc1ccc(O)cc1)C(=O)N[C@H](CO)C(=O)N[C@H](Cc1ccccc1)C(N)=O` — result for “surface TFRC expression”: 0.58 (Transferrin receptor protein 1 (Tfrc, Mus musculus, UniProt Q62351); flow cytometry; DC2.4; 24 h, pH 7.4, unit not given; baseline: 0 h).
For `CCC(=O)O`, the Km was 3400 ± 300 µM (medium-chain acyl-CoA synthetase A461K; substrate).
`O=C(c1ccc(Cl)cc1)N1CCN2C(=O)N(OC(=O)N3CCOc4ccccc43)C(=O)C2C1` (centres unmarked) has a median ratio of 0.46 (ABHD6 (Homo sapiens, UniProt Q9BV23); enzyme activity, inhibitor, MS-based ABPP; SW-620 in situ; 10 µM, 2 h, 37 °C; baseline: compound over DMSO, lower = stronger inhibition).
`CC(=O)C1C(=O)c2ccccc2C1=O`: activity “inactive” (Bile acid receptor (NR1H4, Homo sapiens, UniProt Q96RI1); cells; concentration not given).
For `Oc1ccc2ccc3cccc4ccc1c2c34`, the fold change was 2.03 (Aryl hydrocarbon receptor; reporter gene, agonist, luciferase reporter; ZF-4; 10000 µM; baseline: vehicle control).
`CN1CCN(c2cc(-c3ccncc3)c(-c3ccc4ccccc4c3)nn2)CC1` gave an activation of -2.4% (HCRTR1 (Homo sapiens, UniProt O43613); agonist, FLIPR; 12.5 µM).
Under activity class, `CC(C(O)c1ccccc1)N(C)CCOC(c1ccccc1)c1ccccc1` (centres unmarked) is recorded as “inactive” (ACHE; biochemical; concentration not given).
Under “log2 fold change”, `COc1cc(N)c(Cl)cc1C(=O)NC1CN2CCC1CC2` (centres unmarked) is recorded as 0.211 (Probable G-protein coupled receptor 19 (GPR19, Homo sapiens, UniProt Q15760); β-arrestin recruitment, TANGO luminescence, refers to: GPR19; concentration not given; baseline: basal luminescence).
With `CC(Oc1ccc(C(=O)c2ccc(F)cc2)cc1)C(=O)N1CCc2ccccc21` (centres unmarked) the IC50 ratio was 0.2 (PFF0160c E182D; enzyme activity, DCIP colorimetric; baseline: E182D mutant over wild type).
The ΔS of `Nc1nc2c(ncn2[C@@H]2O[C@@H]3COP(=O)(O)O[C@H]4[C@@H](O)[C@H](n5cnc6c(=O)[nH]c(N)nc65)O[C@@H]4COP(=O)(O)O[C@H]3[C@H]2O)c(=O)[nH]1` is reported as 22.2 cal/mol/K (Cell cycle histidine kinase CckA, R374A; cytoplasmic region (Caulobacter vibrioides, UniProt Q9X688, R374A); ITC; with: AMPPNP 5 mM).
With `COc1cc(/C=C/c2ccc(O)cc2)cc(OC)c1` the -T∆S was 3.36 kcal/mol (O-methyltransferase (Sorghum bicolor, UniProt A0A1B6PFV1, W279A); isothermal titration calorimetry; apo protein).
`COc1ccc(N2C(=O)N(c3c(C)cccc3Cl)Cc3cnc(Nc4ccc(C5CCN(C)CC5)cc4OC)nc32)nc1` has an inhibition of 4% (PRKG1 (Homo sapiens, UniProt Q13976); kinase activity; 0.5 µM).
`Cc1ccc2c(c1)C=CC21CCN(C2Cc3ccccc3CC2O)CC1` (racemic) gave a selectivity ratio of 43 (Vesicular acetylcholine transporter (Rattus norvegicus, UniProt Q62666); rat liver (sigma2); baseline: Ki sigma2 over Ki VAChT).
With `O=C(Nc1cccnn1)N1CCC(=Cc2cccc(Oc3ccc(C(F)(F)F)cn3)c2)CC1` the inhibition was 0% (PHKG2 (Homo sapiens, UniProt P15735); kinase activity, inhibitor; 10 µM, human).
`Clc1cccc(-c2cccc(Cl)c2)c1` has an IC25 of 17 µM (AHR (Homo sapiens, UniProt P35869); reporter gene, antagonist; AZ-AHR cells; 24 h, with: TCDD 4.5 nM).
`c1ccc2c3c(ccc2c1)-c1cccc2cccc-3c12` has a fold change of 11 (Aryl hydrocarbon receptor; reporter gene, agonist, luciferase reporter; ZF-4; 41.15 µM; baseline: vehicle control).
`CC(C)(C)NC[C@H](O)COc1nsnc1N1CCOCC1` — result for “increase in binding signal”: greater than 50% (Gag polyprotein, nucleocapsid protein p7 (gag, Human immunodeficiency virus type 1 group M subtype B, UniProt P04591); AlphaScreen; 45 µM, with: U3 RNA; baseline: DMSO).
For `COCc1ccccc1C(=O)NCCOc1cc(C)cc(C)c1`, the IC50 ratio was 0.4 (PFF0160c E182D; enzyme activity, DCIP colorimetric; baseline: E182D mutant over wild type).
With `COc1ccc(Nc2nn3c(-c4ccccc4)ccnc3c2C(=O)Nc2ccccc2)cc1` the band share was 100% (α-amylase isoenzymes; native PAGE densitometry, refers to: α-amy2 band; equal to IC50).
`COc1ncccc1-c1cnn2ccc(N3CCN(C(=O)OC(C)C)CC3)nc12` gave a remaining binding of 96% (MINK1 (Homo sapiens, UniProt Q8N4C8); KINOMEscan binding; 1 µM; baseline: untreated control).
`COc1ccc2c3c([nH]c2c1)CCN(C)CC3.O=C(O)/C=C/C(=O)O`: “recovery time constant” 9.6 ± 0.3 s (Neuronal acetylcholine receptor; alpha9/alpha10 (Homo sapiens, UniProt Q9GZZ6+Q9UGM1); ion current, inhibitor, two-electrode voltage clamp; Xenopus laevis oocytes; 10 µM, human receptor, with: acetylcholine 6 µM).
`O=C(O)Cc1c[nH]cn1` — result for “normalised MST signal”: 0.37 (SLC6A6 (Homo sapiens, UniProt P31641, Y138A); binding, microscale thermophoresis; 125 µM, room temperature, with: 50 nM labelled protein; higher = more binding).
`Cc1cn([C@H]2C[C@H](O)[C@@H](COP(=O)(O)OP(=O)(O)OP(=O)(O)O)O2)c(=O)[nH]c1=O` — result for “maximum incorporation rate”: 40 ± 2 s⁻¹ (DNA polymerase I, Klenow fragment (polA, Escherichia coli, UniProt P00582, C907S/D424A/L744C); nucleotide incorporation, substrate, single-turnover rapid quench; with: radiolabelled primer-template DNA).
`CC(C)(C)C(O)C(Oc1ccc(-c2ccccc2)cc1)n1cncn1` (centres unmarked) gave a koff of 0.926 s⁻¹ (Glideosome-associated protein 50 (GAP50, Plasmodium falciparum, UniProt Q8I2X3); binding, surface plasmon resonance; 1:1 binding model).
`C[C@H]1CN(c2n[nH]c3nc(N[C@H]4CC[C@H](NS(=O)(=O)CCC(F)(F)F)CC4)ncc23)CCO1` gave a remaining binding of 1.14 (Lysine--tRNA ligase (KARS1, Homo sapiens, UniProt Q15046); Kinobeads competition, refers to: KARS; 0.8 µM, unit not given; baseline: vehicle).
`Clc1cc2c(cc1Cl)Oc1cc(Cl)c(Cl)cc1O2` has a fold induction of 4.92 (Uncharacterized protein (Takifugu rubripes, UniProt Q4JHL2); reporter gene, agonist, dual-luciferase; COS-7; 0.1 µM, 28 h; baseline: DMSO).
The Km of `CC(=O)N[C@@H](CSCCC=O)C(=O)O` is reported as 820 µM (N-acyl-aromatic-L-amino acid amidohydrolase (carboxylate-forming) (Acy3, Mus musculus, UniProt Q91XE4); enzyme activity, substrate, fluorescamine fluorescence; without Co2+).
The IC50 ratio of `Cc1noc(-c2cccs2)c1C(=O)NC(C)c1cccc2ccccc12` (centres unmarked) is reported as 4.6 (PFF0160c E182D; enzyme activity, DCIP colorimetric; baseline: E182D mutant over wild type).
`CCN(CC)CCOCCOC(=O)C1(c2ccccc2)CCCC1` — result for activity class: “inactive” (ACHE; biochemical; concentration not given).
`Cl.Cl.O=c1cc(NCCCNCc2sc(Br)c(Br)c2Br)[nH]c2ccccc12` gave an IC50 ratio of 4.1 (PFF0160c E182D; enzyme activity, DCIP colorimetric; baseline: E182D mutant over wild type).
For `CC(=O)NC[C@H]1[C@H](O)[C@H](O)[C@@H]2[C@H](O)C[C@@H](CO)N21`, the inhibition was 64.7% (Spodoptera litura β-N-acetylglucosaminidase; crude enzyme; 0.0251 µM, run 2, with: p-nitrophenyl GlcNAc).

For quick reference, copied from above:
With `COc1ccc(Nc2nn3c(-c4ccccc4)ccnc3c2C(=O)Nc2ccccc2)cc1` the band share was 100% (α-amylase isoenzymes; native PAGE densitometry, refers to: α-amy2 band; equal to IC50).
`COc1ncccc1-c1cnn2ccc(N3CCN(C(=O)OC(C)C)CC3)nc12` gave a remaining binding of 96% (MINK1 (Homo sapiens, UniProt Q8N4C8); KINOMEscan binding; 1 µM; baseline: untreated control).
`COc1ccc2c3c([nH]c2c1)CCN(C)CC3.O=C(O)/C=C/C(=O)O`: “recovery time constant” 9.6 ± 0.3 s (Neuronal acetylcholine receptor; alpha9/alpha10 (Homo sapiens, UniProt Q9GZZ6+Q9UGM1); ion current, inhibitor, two-electrode voltage clamp; Xenopus laevis oocytes; 10 µM, human receptor, with: acetylcholine 6 µM).
`O=C(O)Cc1c[nH]cn1` — result for “normalised MST signal”: 0.37 (SLC6A6 (Homo sapiens, UniProt P31641, Y138A); binding, microscale thermophoresis; 125 µM, room temperature, with: 50 nM labelled protein; higher = more binding).
